Measurements from different studies.
Each numbered part is a random draw from the data of one study; scales do not carry over between parts.
UniProt P53671, sequence (whole entry, looked up): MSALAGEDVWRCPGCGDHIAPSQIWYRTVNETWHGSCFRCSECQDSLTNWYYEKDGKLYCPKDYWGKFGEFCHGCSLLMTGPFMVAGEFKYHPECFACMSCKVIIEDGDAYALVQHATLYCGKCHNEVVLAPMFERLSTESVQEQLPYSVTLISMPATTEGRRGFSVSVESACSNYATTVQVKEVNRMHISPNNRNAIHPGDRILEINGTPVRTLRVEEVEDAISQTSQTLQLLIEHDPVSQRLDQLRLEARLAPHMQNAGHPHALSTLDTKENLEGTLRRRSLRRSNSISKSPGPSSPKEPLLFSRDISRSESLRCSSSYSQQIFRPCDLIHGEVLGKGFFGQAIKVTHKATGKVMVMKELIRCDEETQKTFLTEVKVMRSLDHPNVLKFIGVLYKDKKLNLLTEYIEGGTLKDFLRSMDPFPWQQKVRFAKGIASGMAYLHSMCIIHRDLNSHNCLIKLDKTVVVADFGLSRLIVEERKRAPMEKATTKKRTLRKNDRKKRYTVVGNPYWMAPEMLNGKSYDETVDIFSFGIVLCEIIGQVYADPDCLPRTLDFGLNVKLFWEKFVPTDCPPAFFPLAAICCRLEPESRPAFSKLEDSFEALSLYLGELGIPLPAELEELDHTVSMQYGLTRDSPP
UniProt P31751, sequence (whole entry, looked up): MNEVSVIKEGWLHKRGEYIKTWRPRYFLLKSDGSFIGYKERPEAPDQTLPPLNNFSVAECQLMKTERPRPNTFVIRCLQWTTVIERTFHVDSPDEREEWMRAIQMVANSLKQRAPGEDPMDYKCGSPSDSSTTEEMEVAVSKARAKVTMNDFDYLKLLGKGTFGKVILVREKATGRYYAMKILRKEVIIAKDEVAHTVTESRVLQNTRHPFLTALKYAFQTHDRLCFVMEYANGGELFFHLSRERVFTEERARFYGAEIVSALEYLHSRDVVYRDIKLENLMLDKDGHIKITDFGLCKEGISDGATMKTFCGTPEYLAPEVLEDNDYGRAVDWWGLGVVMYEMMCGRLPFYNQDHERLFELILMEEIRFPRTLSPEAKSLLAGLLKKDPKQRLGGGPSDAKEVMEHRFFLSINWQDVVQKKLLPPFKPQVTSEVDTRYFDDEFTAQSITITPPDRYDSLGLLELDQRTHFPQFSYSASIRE
UniProt P42336, sequence (whole entry, unmodified, looked up): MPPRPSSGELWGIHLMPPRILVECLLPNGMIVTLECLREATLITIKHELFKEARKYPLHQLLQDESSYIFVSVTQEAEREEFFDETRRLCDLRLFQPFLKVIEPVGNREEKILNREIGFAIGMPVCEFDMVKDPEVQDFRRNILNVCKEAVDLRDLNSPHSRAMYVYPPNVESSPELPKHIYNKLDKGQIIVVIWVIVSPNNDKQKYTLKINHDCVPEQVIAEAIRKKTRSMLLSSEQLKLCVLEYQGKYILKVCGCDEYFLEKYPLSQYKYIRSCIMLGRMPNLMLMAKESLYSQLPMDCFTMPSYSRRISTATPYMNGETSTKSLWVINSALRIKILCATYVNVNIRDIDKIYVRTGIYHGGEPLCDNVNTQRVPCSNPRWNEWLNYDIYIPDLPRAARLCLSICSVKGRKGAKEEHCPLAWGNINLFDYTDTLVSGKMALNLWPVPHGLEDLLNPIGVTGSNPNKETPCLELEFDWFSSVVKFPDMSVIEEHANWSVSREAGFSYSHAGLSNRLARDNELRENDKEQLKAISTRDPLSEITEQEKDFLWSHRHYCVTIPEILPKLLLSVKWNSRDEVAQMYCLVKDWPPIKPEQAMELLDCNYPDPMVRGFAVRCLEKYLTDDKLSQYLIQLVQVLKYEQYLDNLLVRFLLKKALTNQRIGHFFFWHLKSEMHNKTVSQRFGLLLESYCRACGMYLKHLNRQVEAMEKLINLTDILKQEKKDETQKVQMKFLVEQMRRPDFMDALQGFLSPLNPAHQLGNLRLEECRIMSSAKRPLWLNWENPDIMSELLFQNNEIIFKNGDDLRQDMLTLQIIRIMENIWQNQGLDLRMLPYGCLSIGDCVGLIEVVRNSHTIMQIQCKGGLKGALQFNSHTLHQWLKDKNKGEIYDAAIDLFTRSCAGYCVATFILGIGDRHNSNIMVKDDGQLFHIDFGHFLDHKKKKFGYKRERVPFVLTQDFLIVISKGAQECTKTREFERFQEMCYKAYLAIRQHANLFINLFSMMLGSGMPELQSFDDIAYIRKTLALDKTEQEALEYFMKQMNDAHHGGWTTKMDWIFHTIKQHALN
UniProt Q13873, sequence (whole entry, looked up): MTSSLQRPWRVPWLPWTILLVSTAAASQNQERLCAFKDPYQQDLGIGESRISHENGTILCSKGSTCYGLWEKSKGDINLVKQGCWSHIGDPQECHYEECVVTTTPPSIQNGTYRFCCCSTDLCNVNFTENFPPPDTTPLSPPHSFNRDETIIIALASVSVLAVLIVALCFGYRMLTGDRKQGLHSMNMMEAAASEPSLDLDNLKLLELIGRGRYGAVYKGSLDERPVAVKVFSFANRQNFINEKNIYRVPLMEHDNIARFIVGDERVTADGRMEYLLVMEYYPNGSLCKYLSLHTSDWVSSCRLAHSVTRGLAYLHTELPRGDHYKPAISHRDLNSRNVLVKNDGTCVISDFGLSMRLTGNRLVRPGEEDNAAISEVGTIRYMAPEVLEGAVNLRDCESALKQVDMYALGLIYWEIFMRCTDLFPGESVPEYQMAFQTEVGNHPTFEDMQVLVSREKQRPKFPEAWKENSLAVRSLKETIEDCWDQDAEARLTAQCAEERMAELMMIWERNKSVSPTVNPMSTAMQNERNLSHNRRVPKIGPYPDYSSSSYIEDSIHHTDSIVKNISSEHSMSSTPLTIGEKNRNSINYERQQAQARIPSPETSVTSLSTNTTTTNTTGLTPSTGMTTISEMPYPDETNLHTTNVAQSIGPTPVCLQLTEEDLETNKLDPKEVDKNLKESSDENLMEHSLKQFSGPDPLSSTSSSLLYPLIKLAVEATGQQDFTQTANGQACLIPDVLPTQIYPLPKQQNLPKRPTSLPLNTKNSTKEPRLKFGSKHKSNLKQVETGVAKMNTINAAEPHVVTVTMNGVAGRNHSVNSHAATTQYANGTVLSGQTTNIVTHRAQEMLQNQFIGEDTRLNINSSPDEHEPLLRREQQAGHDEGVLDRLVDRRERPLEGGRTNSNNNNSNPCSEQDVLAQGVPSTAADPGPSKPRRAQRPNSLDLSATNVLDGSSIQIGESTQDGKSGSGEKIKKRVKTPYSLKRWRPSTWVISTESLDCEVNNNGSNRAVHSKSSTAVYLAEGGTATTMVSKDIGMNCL
UniProt P36896, sequence (whole entry, looked up): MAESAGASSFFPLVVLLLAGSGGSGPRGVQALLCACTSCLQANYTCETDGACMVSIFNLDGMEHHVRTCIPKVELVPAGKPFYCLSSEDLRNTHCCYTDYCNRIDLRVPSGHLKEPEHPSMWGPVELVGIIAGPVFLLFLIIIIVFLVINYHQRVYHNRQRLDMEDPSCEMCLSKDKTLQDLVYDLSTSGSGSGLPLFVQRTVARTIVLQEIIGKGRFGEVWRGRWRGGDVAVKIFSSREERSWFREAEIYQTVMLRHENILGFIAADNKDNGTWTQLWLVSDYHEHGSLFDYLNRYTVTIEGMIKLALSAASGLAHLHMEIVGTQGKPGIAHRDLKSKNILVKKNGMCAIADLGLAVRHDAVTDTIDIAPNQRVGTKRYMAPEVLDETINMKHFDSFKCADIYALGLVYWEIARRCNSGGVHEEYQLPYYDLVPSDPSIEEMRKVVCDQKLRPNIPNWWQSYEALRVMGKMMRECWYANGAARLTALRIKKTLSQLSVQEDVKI
UniProt Q00537, sequence (whole entry, looked up): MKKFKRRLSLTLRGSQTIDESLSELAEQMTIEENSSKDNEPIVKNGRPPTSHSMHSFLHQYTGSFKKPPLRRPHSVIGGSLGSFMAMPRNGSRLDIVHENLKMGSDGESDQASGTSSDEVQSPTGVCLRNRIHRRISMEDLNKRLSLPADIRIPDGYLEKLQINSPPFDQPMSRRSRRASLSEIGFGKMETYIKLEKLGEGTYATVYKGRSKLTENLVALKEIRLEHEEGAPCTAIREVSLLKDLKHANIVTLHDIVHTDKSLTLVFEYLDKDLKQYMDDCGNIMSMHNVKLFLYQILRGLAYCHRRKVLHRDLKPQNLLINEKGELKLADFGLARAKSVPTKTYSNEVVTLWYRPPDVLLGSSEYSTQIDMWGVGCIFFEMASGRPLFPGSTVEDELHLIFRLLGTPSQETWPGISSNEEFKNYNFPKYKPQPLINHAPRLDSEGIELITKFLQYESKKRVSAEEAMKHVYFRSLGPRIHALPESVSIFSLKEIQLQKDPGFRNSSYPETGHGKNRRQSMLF

Sample 1
Target: Dual specificity tyrosine-phosphorylation-regulated kinase 2 (DYRK2, Homo sapiens, UniProt Q92630)
UniProt Q92630, sequence (whole entry, looked up): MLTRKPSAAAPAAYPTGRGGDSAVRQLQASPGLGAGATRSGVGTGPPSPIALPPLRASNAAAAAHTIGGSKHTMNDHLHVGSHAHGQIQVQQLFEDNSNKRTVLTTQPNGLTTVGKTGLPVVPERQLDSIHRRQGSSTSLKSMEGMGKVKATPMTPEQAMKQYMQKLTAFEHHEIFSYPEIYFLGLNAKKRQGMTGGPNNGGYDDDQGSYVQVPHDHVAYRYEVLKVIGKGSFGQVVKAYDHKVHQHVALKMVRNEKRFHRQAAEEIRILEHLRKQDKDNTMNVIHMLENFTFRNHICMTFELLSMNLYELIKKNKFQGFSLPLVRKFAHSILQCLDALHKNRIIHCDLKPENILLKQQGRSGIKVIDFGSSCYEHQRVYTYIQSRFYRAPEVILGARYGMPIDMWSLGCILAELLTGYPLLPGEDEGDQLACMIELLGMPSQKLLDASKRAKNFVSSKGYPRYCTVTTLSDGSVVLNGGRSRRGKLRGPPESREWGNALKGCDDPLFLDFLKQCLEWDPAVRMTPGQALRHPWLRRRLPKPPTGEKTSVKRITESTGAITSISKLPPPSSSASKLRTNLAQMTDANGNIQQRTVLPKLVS
Effect on: enzyme activity
Mode: inhibitor
Tested at: 0.5 µM
Reference: control
| Compound | remaining activity [%] |
| --- | --- |
| c1cc(-c2cnn3cc(-c4ccc(OCCN5CCCCC5)cc4)cnc23)ccn1 | 47 |
| COc1cc2c(N3CCN(C(=O)Nc4ccc(OC(C)C)cc4)CC3)ncnc2cc1OCCCN1CCCCC1 | 107 |
| N#CC(c1ccnc(NCCc2cccnc2)n1)c1nc2ccccc2s1 (stereo not shown) | 22.2 |
| Clc1ccc(Nc2nnc(Cc3ccncc3)c3ccccc23)cc1 | 103 |
| FC(F)(F)c1ccc(/C=C/c2nc(COc3ccc(CCCCn4ccnn4)cc3)co2)cc1 | 110 |
| CCN(CC)CCCCN1c2ccccc2Oc2ccc(Cl)cc21 | 101 |
| O=C(c1ccccc1)c1ccc(N2CCOCC2)cc1O | 96.8 |
| CCCCc1c(-c2ccc(O)cc2)[nH]c2nccnc12 | 93.1 |
| NC(=O)c1cccc(-c2cc(Nc3ccc(OC(F)(F)F)cc3)ncn2)c1 | 78.7 |
| COc1cc2c(Nc3ccc(Br)cc3F)ncnc2cc1OCC1CCN(C)CC1 | 97.2 |
| N#C/C(=C(/N)SC1C=CC=CC1)c1cccc(C(O)c2ccncc2)c1 (stereo not shown) | 96.7 |
| C[C@@H](N)[C@H]1CC[C@H](C(=O)Nc2ccncc2)CC1 | 95.2 |
| O=C(O)/C=C/c1cc(Br)c(Br)c(Br)c1Br | 79.4 |
| O=c1c(-c2ccc(F)cc2)c(-c2ccncc2)[nH]n1-c1ccc(Cl)cc1 | 86.9 |
| O=C1NC(=O)/C(=C/c2ccc3c(c2)OC(F)(F)O3)S1 | 98.6 |
| O=C1c2ccccc2-c2nc3nnnn3nc21 | 113 |
| CNc1cc2c(Nc3cccc(Br)c3)ncnc2cn1 | 89.9 |
| NC(=O)c1ccc(-c2nc(-c3ccc4c(c3)OCCO4)c(-c3ccccn3)[nH]2)cc1 | 103 |
| CC(C)(C)c1nc2c3cc[nH]c(=O)c3c3cc(F)ccc3c2[nH]1 | 62.5 |
| CC(C)n1cnc2c(Nc3cccc(Cl)c3)nc(NCCO)nc21 | 93.9 |
| Nc1nc(Nc2ccc(S(N)(=O)=O)cc2)nn1C(=S)Nc1c(F)cccc1F | 60.4 |
| CC(C)N(CCC(=O)c1ccc2ccccc2c1)Cc1ccccc1 | 118 |
| O=Nc1c(-c2c(O)[nH]c3ccccc23)[nH]c2ccccc12 | 79.1 |

Sample 2
SMILES: COc1cc(C(=O)N2CCC(N3CCN(C)CC3)CC2)ccc1Nc1ncc2c(n1)N(C)c1ccccc1C(=O)N2C
Technique: KINOMEscan
Tested at: 10 µM
Reference: DMSO control
Direction: lower = stronger binding
| target | binding [%] |
| --- | --- |
| CAMK1D | 69 |
| MARK4 | 78 |
| AURKC | 50 |
| PLK2 | 100 |
| PAK6 | 98 |
| SGK3 | 95 |
| SRPK2 | 100 |
| PRKCI | 100 |
| PIM3 | 88 |
| SYK | 100 |
| ALK | 13 |
| NEK4 | 95 |
| CSNK1G2 | 100 |

Sample 3
Structure (SMILES): CC(=O)Nc1c(C(C)=O)c(=O)n(C)c2nc(-c3ccc(Cl)cc3Cl)c(-c3ccc(Cl)cc3)cc12
Technique: competition with immobilised ligand
Tested at: 1 µM
| target | effect on | remaining binding |
| --- | --- | --- |
| Ephrin type-A receptor 7 (EPHA7, Homo sapiens, UniProt Q15375) | cell-free assay | 100% |
| RAC-beta serine/threonine-protein kinase (AKT2, Homo sapiens, UniProt P31751) | cell-free assay | 100% |
| Serine/threonine-protein kinase Nek3 (NEK3, Homo sapiens, UniProt P51956) | cell-free assay | 100% |
| Mitogen-activated protein kinase kinase kinase 19 (MAP3K19, Homo sapiens, UniProt Q56UN5) | cell-free assay | 100% |
| Activin receptor type-1B (ACVR1B, Homo sapiens, UniProt P36896) | cell-free assay | 94% |
| LIM domain kinase 2 (LIMK2, Homo sapiens, UniProt P53671) | cell-free assay | 100% |
| Inhibitor of nuclear factor kappa-B kinase subunit alpha (CHUK, Homo sapiens, UniProt O15111) | cell-free assay | 100% |
| Cyclin-dependent kinase 13 (CDK13, Homo sapiens, UniProt Q14004) | cell-free assay | 100% |
| Receptor-type tyrosine-protein kinase FLT3 (FLT3, Homo sapiens, UniProt P36888, D835H) | cell-free assay | 100% |
| Epidermal growth factor receptor (EGFR, Homo sapiens, UniProt P00533, L858R) | cell-free assay | 100% |
| Phosphatidylinositol 4,5-bisphosphate 3-kinase catalytic subunit alpha isoform (PIK3CA, Homo sapiens, UniProt P42336, E542K) | cell-free assay | 94% |
| Serine/threonine-protein kinase WNK3 (WNK3, Homo sapiens, UniProt Q9BYP7) | cell-free assay | 100% |
| Serine/threonine-protein kinase D3 (PRKD3, Homo sapiens, UniProt O94806) | cell-free assay | 100% |
| Mitogen-activated protein kinase kinase kinase kinase 2 (MAP4K2, Homo sapiens, UniProt Q12851) | cell-free assay | 92% |
| Cyclin-dependent kinase 17 (CDK17, Homo sapiens, UniProt Q00537) | cell-free assay | 100% |
| Tyrosine-protein kinase TXK (TXK, Homo sapiens, UniProt P42681) | binding | 100% |
| Bone morphogenetic protein receptor type-2 (BMPR2, Homo sapiens, UniProt Q13873) | cell-free assay | 100% |

Sample 4
Effect on: AlphaScreen signal
Technique: AlphaScreen counter screen
Matrix: His6 peptide without bromodomain
Tested at: 50 µM
Setting: assay interference check
| Structure (SMILES) | inhibition [%] |
| --- | --- |
| CC(=O)Nc1cccc(NC(=O)CSc2ccc3nnc(-c4cccc(F)c4)n3n2)c1 | 1.2 |
| CN(C)C[C@@H]1CCn2cc(c3ccccc32)C2=C(C(=O)NC2=O)c2cn(c3ccccc23)CCO1 | 96.7 |
| Nc1nc(Nc2ccccc2F)sc1C(=O)c1ccc(Br)cc1 | 62.3 |
| O=c1[nH]ccc2c(S(=O)(=O)N3CCCNCC3)cccc12 | 1.75 |
| Cc1ccnc(Nc2nc(-c3sc(N)nc3C)cs2)c1 | 90.1 |
| C=CC(=O)N1CCC[C@@H](n2nc(-c3ccc(Oc4ccccc4)cc3)c3c(N)ncnc32)C1 | 34.1 |
| Cl.Cl.Cl.Cn1cc(-c2[nH]c3cc(NC(=O)[C@H](N)C4CCCCC4)cc4c3c2C=NNC4=O)cn1 | 66.4 |
| Cc1nc2ccccn2c1-c1csc(Nc2ccc(S(N)(=O)=O)cc2)n1 | -1.7 |
| COc1ccc(-c2nnc3ccc(SCC(=O)Nc4cccc(Cl)c4)nn23)cc1OC | 26.6 |
| O=C1NC(=O)C(=Cc2ccccc2OCc2ccccc2Cl)S1 | 8.15 |
| CN[C@@H]1C[C@H]2O[C@@](C)([C@@H]1OC)n1c3ccccc3c3c4c(c5c6ccccc6n2c5c31)C(=O)N[C@H]4O | 39 |

For quick reference, copied from above (sample 3):
| target | effect on | remaining binding |
| --- | --- | --- |
| Serine/threonine-protein kinase Nek3 (NEK3, Homo sapiens, UniProt P51956) | cell-free assay | 100% |
| Mitogen-activated protein kinase kinase kinase 19 (MAP3K19, Homo sapiens, UniProt Q56UN5) | cell-free assay | 100% |
| Activin receptor type-1B (ACVR1B, Homo sapiens, UniProt P36896) | cell-free assay | 94% |
| LIM domain kinase 2 (LIMK2, Homo sapiens, UniProt P53671) | cell-free assay | 100% |
| Inhibitor of nuclear factor kappa-B kinase subunit alpha (CHUK, Homo sapiens, UniProt O15111) | cell-free assay | 100% |
